Experimental data from different studies.
Lines come from different studies, so protocols differ. Numbers after ± are the reported error.

`N=C(N)NCCC[C@@H]1NC(=O)[C@H](CCCCNC(=O)CNC(=O)CNC(=O)CNC(=O)CC[C@H](NC(=O)CNC(=O)CNC(=O)CNC(=O)CN2CCN(CC(=O)O)CCN(CC(=O)O)CCN(CC(=O)O)CC2)C(=O)NCC(=O)NCC(=O)NCC(=O)NCCCC[C@@H]2NC(=O)[C@@H](Cc3ccccc3)NC(=O)[C@H](CC(=O)O)NC(=O)CNC(=O)[C@H](CCCNC(=N)N)NC2=O)NC(=O)[C@@H](Cc2ccccc2)NC(=O)[C@H](CC(=O)O)NC(=O)CNC1=O` [indium-111 labelled] has a tissue uptake of 0.39 ± 0.05 %ID/g (female athymic nu/nu mice, muscle; intravenous, 111 kBq, 4 h).
For `CCCC[C@H](NC(=O)CNC(=O)CNC(=O)CN1CCN(CC(=O)O)CCN(CC(=O)O)CC1)C(=O)N[C@H]1CC(=O)NCCCC[C@@H](C(N)=O)NC(=O)[C@H](Cc2c[nH]c3ccccc23)NC(=O)[C@H](CCCNC(=N)N)NC(=O)[C@@H](Cc2ccccc2)NC(=O)[C@H](Cc2c[nH]cn2)NC1=O` [technetium-99m labelled], the tissue uptake was 0.07 ± 0.03 %ID/g (C57 mouse, heart; iv, 0.037 MBq, 4 h).
Under “tumour-to-tissue uptake ratio”, `Cc1cc(-c2ccc(NC(=O)[C@H](CCCCNC(=O)CCOCCOCCC(=O)N[C@H](Cc3ccccc3)C(=O)N[C@H]3CSSC[C@@H](C(=O)N[C@H](C(=O)O)[C@@H](C)O)NC(=O)[C@H]([C@@H](C)O)NC(=O)[C@H](CCCCN)NC(=O)[C@@H](Cc4c[nH]c5ccccc45)NC(=O)[C@H](Cc4ccc(O)cc4)NC3=O)NC(=O)CN3CCN(CC(=O)O)CCN(CC(=O)O)CCN(CC(=O)O)CC3)c(C)c2)ccc1N=Nc1ccc2c(S(=O)(=O)O)cc(S(=O)(=O)O)c(N)c2c1O` [gallium-68 labelled] is recorded as 2.02 ± 0.23 (micro-PET; male BALB/c nude mouse, AR42J xenograft, tumour and kidney; intravenous, 7.4 MBq, 4 h; reference: tumour over kidney).
`CCCC[C@H](NC(=O)CNC(=O)CNC(=O)CN1CCN(CC(=O)O)CCN(CC(=O)O)CCN(CC(=O)O)CC1)C(=O)N[C@H]1CC(=O)NCCCC[C@@H](C(N)=O)NC(=O)[C@H](Cc2c[nH]c3ccccc23)NC(=O)[C@H](CCCNC(=N)N)NC(=O)[C@@H](Cc2ccccc2)NC(=O)[C@H](Cc2c[nH]cn2)NC1=O` [lutetium-177 labelled] gave a tissue uptake of 1.21 ± 0.19 %ID/g (C57 mouse, female, spleen; intravenous, 0.037 MBq, 0.5 h).
`Cc1cc(-c2ccc(NC(=O)[C@H](CCCCNC(=O)CCN3C(=O)CC(SCCC(=O)N[C@H](Cc4ccccc4)C(=O)N[C@H]4CSSC[C@@H](C(=O)N[C@H](C(=O)O)[C@@H](C)O)NC(=O)[C@H]([C@@H](C)O)NC(=O)[C@H](CCCCN)NC(=O)[C@@H](Cc5c[nH]c6ccccc56)NC(=O)[C@H](Cc5ccc(O)cc5)NC4=O)C3=O)NC(=O)CN3CCN(CC(=O)O)CCN(CC(=O)O)CCN(CC(=O)O)CC3)c(C)c2)ccc1N=Nc1ccc2c(S(=O)(=O)O)cc(S(=O)(=O)O)c(N)c2c1O` (stereo partly drawn) [lutetium-177 labelled] gave an absorbed dose of 0.71 ± 0.13 Gy/GBq (SPECT/CT dosimetry; patients with metastatic NETs, all tumour lesions).
The critical strain of `COc1ccc2cc([C@H](C)C(=O)N[C@H](Cc3ccccc3)C(=O)N[C@H](Cc3ccccc3)C(=O)O)ccc2c1` is reported as 1% (oscillatory rheology; hydrogel 0.8 wt%).
For `N=C(N)NCCC[C@@H]1NC(=O)[C@H](CCCCNC(=O)CNC(=O)CNC(=O)CNC(=O)CC[C@H](NC(=O)CNC(=O)CNC(=O)CNC(=O)CC[C@H](NC(=O)CN2CCN(CC(=O)O)CCN(CC(=O)O)CCN(CC(=O)O)CC2)C(=O)NCC(=O)NCC(=O)NCC(=O)N[C@@H](CCC(=O)NCC(=O)NCC(=O)NCC(=O)NCCCC[C@@H]2NC(=O)[C@@H](Cc3ccccc3)NC(=O)[C@H](CC(=O)O)NC(=O)CNC(=O)[C@H](CCCNC(=N)N)NC2=O)C(=O)NCC(=O)NCC(=O)NCC(=O)NCCCC[C@@H]2NC(=O)[C@@H](Cc3ccccc3)NC(=O)[C@H](CC(=O)O)NC(=O)CNC(=O)[C@H](CCCNC(=N)N)NC2=O)C(=O)NCC(=O)NCC(=O)NCC(=O)NCCCC[C@@H]2NC(=O)[C@@H](Cc3ccccc3)NC(=O)[C@H](CC(=O)O)NC(=O)CNC(=O)[C@H](CCCNC(=N)N)NC2=O)NC(=O)[C@@H](Cc2ccccc2)NC(=O)[C@H](CC(=O)O)NC(=O)CNC1=O` [indium-111 labelled], the tissue uptake was 3.65 ± 0.87 %ID/g (female athymic nu/nu mice, lungs; intravenous, 0.5 h).
`CCCC[C@H](NC(=O)CCCCCCCNC(=O)CN1CCN(CC(=O)O)CCN(CC(=O)O)CC1)C(=O)N[C@H]1CC(=O)NCCCC[C@@H](C(N)=O)NC(=O)[C@H](Cc2c[nH]c3ccccc23)NC(=O)[C@H](CCCNC(=N)N)NC(=O)[C@@H](Cc2ccccc2)NC(=O)[C@H](Cc2c[nH]cn2)NC1=O` [copper-64 labelled] has a tissue uptake of 0.02 ± 0.04 %ID/g (C57 mice, pancreas; intravenous, 0.37 MBq, 24 h).
`CCCCCCCC/C=C\CCCCCCCC(=O)OC[C@H](NC(=O)[C@H](Cc1c[nH]c2ccccc12)NC(=O)[C@H](Cc1c[nH]cn1)NC(=O)[C@@H]1CCC(=O)N1)C(=O)N[C@@H](Cc1ccc(O)cc1)C(=O)N[C@H](CC(C)C)C(=O)N[C@@H](CC(C)C)C(=O)N[C@@H](CCCNC(=N)N)C(=O)N1CCC[C@H]1C(=O)NCC` — result for “critical aggregation concentration”: 12.2 µg/mL (deionized water).
With `CC(C)C[C@H](NC(=O)[C@H](Cc1ccc(O)cc1)NC(=O)[C@@H](CCCNC(=N)N)NC(=O)[C@@H](CO)NC(=O)[C@H](Cc1ccccc1)NC(=O)[C@H](CC1CCCCC1)NC(=O)[C@H](CC(=O)O)NC(=O)CN1CCCN2CCN(CCCN(CC(=O)O)CC2)CC1)C(=O)N[C@@H](Cc1c[nH]c2ccccc12)C(=O)N[C@@H](CO)C(=O)O` [copper-64 labelled] the tissue uptake was 11.2 ± 1.2 %ID/g (female NMRI nude mice, liver; 1 h p.i.).
`CC(C)C[C@H](NC(=O)[C@H](Cc1ccc(O)cc1)NC(=O)[C@@H](CCCNC(=N)N)NC(=O)[C@@H](CO)NC(=O)[C@H](Cc1ccccc1)NC(=O)[C@H](CC1CCCCC1)NC(=O)[C@H](CC(=O)O)NC(=O)CN1CCN(CC(=O)O)CCN(CC(=O)O)CCN(CC(=O)O)CC1)C(=O)N[C@@H](Cc1c[nH]c2ccccc12)C(=O)N[C@@H](CO)C(=O)O` [copper-64 labelled] gave an effective dose of 5.5 mSv (human; 200 MBq).
`N=C(N)NCCC[C@H](NC(=O)[C@@H]1CSSC[C@H](NC(=O)[C@H](Cc2ccc3ccccc3c2)NC(=O)[C@H](CCCNC(=N)N)NC(=O)[C@H](CCCNC(=N)N)NC(=O)CN2CCN(CC(=O)O)CCN(CC(=O)O)CC2)C(=O)N[C@@H](Cc2ccc(O)cc2)C(=O)N[C@@H](CCCNC(N)=O)C(=O)N[C@@H](CCCCN)C(=O)N[C@H](CCCCN)C(=O)N2CCC[C@H]2C(=O)N[C@@H](Cc2ccc(O)cc2)C(=O)N[C@@H](CCCNC(=N)N)C(=O)N[C@@H](CCCNC(N)=O)C(=O)N1)C(N)=O` [gallium-68 labelled] has an effective dose of 4.7 mSv (human; 5 mCi, per injection).
`N=C(N)NCCC[C@@H]1NC(=O)[C@H](CCCCNC(=O)CN2CCN(CC(=O)O)CCN(CC(=O)O)CCN(CC(=O)O)CC2)NC(=O)[C@@H](Cc2ccccc2)NC(=O)[C@H](CC(=O)O)NC(=O)CNC1=O` has a logD of -4.3 (octanol/ammonium acetate buffer; pH 6.8, 64Cu-labelled).
`N=C(N)NCCC[C@@H]1NC(=O)[C@H](CCCCNC(=O)CC[C@H](NC(=O)CC[C@H](NC(=O)CN2CCN(CC(=O)O)CCN(CC(=O)O)CCN(CC(=O)O)CC2)C(=O)N[C@@H](CCC(=O)NCCCC[C@@H]2NC(=O)[C@@H](Cc3ccccc3)NC(=O)[C@H](CC(=O)O)NC(=O)CNC(=O)[C@H](CCCNC(=N)N)NC2=O)C(=O)NCCCC[C@@H]2NC(=O)[C@@H](Cc3ccccc3)NC(=O)[C@H](CC(=O)O)NC(=O)CNC(=O)[C@H](CCCNC(=N)N)NC2=O)C(=O)NCCCC[C@@H]2NC(=O)[C@@H](Cc3ccccc3)NC(=O)[C@H](CC(=O)O)NC(=O)CNC(=O)[C@H](CCCNC(=N)N)NC2=O)NC(=O)[C@@H](Cc2ccccc2)NC(=O)[C@H](CC(=O)O)NC(=O)CNC1=O` [indium-111 labelled] gave a tissue uptake of 0.63 ± 0.11 %ID/g (female athymic nu/nu mice, muscle; intravenous, 111 kBq, 4 h).
For `CCCC[C@H](NC(=O)COCCOCCNC(=O)CN1CCN(CC(=O)O)CCN(CC(=O)O)CC1)C(=O)N[C@H]1CC(=O)NCCCC[C@@H](C(N)=O)NC(=O)[C@H](Cc2c[nH]c3ccccc23)NC(=O)[C@H](CCCNC(=N)N)NC(=O)[C@@H](Cc2ccccc2)NC(=O)[C@H](Cc2c[nH]cn2)NC1=O` [copper-64 labelled], the tissue uptake was 0.04 ± 0.03 %ID/g (C57 mice, brain; intravenous, 0.37 MBq, 24 h).
